Experimental data of several laboratories.
Numbered parts are unrelated; each lists some results of a single study.

Study 1
Target: Ras GTPase-activating protein-binding protein 1, RRM domain (G3BP1, Homo sapiens, UniProt Q13283)
Sequence of UniProt Q13283 (whole entry, looked up): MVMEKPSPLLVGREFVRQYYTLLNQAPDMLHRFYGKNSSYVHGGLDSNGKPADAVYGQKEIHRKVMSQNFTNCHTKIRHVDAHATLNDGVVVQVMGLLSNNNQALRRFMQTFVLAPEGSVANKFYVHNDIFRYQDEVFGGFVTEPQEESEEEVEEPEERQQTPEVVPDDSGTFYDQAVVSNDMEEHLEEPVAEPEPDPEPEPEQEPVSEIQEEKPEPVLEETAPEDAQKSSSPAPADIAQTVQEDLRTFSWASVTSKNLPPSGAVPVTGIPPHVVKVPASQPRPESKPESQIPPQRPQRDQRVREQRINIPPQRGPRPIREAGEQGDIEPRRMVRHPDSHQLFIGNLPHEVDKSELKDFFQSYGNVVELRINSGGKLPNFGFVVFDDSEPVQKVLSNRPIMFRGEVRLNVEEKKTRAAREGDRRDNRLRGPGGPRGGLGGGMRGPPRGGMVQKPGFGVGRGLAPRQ
Method: RNA Bind-n-Seq
Form: RNA
Sample: in vitro
Tested at: 1 µM
Notes: whole 134-nt RNA, ends assumed
With: 150 mM KCl
Relative to: input library
Reading: higher = stronger binding
Shared flanks, not repeated: GGGAGUUCUACAGUCCGACGAUC … UGGAAUUCUCGGGUGUCAAGG
Strand	log2 enrichment
CAAGUCCUGUGCUACACAUCGUAUGUACCGAAUCGGUGGAAAAAAAGGUUUUUGGAAAGUAUUAUGUUACGCCGUUCGGAUCUGCACUUC	-0.257
UAACUUUAGAGGAGGAUCUGAUGGAUAUGGCAGUGGACGUGGAUUUGGGGAUGGCUAUACUGGGUAUGGAGGAGGACCUGGAGGUGGCAA	-0.384
CCUGUGCUACACAUCGUAUGUACCGAAUCGGGAAAAAAGGGGAAAAAAGGGGAAAAAAGGAAAGUAUUAUGUUACGCCGUUCGGAUCUGC	-0.0302
UGGAGAAGGAACGUGAUAAAGAAGUAAGCGAUGAUGAGGCUGAAGAAAAGGAAGACAAAGAAGAAGAAAAAGAAAAAGAAGAGAAAGAGU	-0.125
UAACUUUAGAGGAGGAUCUGAUGGAUAUGGAAGUGGACGUGGAUUUGGGGAUGGCUAUAAUGGGUAUGGAGGAGGACCUGGAGGUGGCAA	-0.742
UAACUUUAGAGGAGGAUCUGAUGGAUAUGGCAGUGGACGUGGAUUUGGGGAUGGCUAUCAUGGGUAUGGAGGAGGACCUGGAGGUGGCAA	-0.45

Study 2
Target: Histone acetyltransferase KAT6A, winged helix 2, GST fusion (KAT6A, Homo sapiens, UniProt Q92794, residues 85-181)
Method: protein binding microarray
Form: double-stranded DNA, one strand shown
Sample: in vitro
Tested at: not given
Notes: 8-mer, flanks averaged, mean of 2 arrays, mostly near background
Relative to: not given
Reading: higher = stronger binding
Residues (chain): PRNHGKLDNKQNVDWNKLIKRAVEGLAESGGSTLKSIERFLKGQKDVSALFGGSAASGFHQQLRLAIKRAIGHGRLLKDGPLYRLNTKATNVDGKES
Strand	E-score
ATTCCCTG	0.0226
CTGAATGC	0.0575
CGAATGCA	0.0265
AGGAGTAG	-0.00464
ATTGATCA	-0.0456
CCAACCAC	0.0737
CTCTCGTC	0.0733
GCCGTAGC	0.132
ACCACCGT	-0.0761

Study 3
Target: RNA binding protein fox-1 homolog 2, RRM domain, GST-SBP tag (RBFOX2, Homo sapiens, UniProt O43251-10, residues 100-194)
Method: RNA Bind-n-Seq
Form: RNA
Sample: in vitro
Tested at: 365 nM
Notes: natural RNA segment, single round, ends assumed
Relative to: no-protein control
Reading: higher = stronger binding
Shared flanks, not repeated: GGGAGUUCUACAGUCCGACGAUC … UGGAAUUCUCGGGUGCCAA
Strand	RBNS enrichment (R)
AAAGUGCAUGCCUCUGUACGUCACACCUUUCUCACCCCUCCCUACCAACACGAGGUGUUUGGUCUGCUUCCAUUCUCUUCUGUGUAGUGCCUGGUUUAUUUAACUAAUUA	11.6
CUGGAGCUGGGAUGCAAUGUAGGCUGAGGGAAAGACGUCAGGUUCCUUUAAUCACAGUCACUGUUUGUUUACCUUGAGCAGUAAACCCGAAGUCAGCCUGCUCUACUACU	0.808
UGUCUGAGGAACCUGUGUGUCCAGAGCCACAUGAAAUGUGAAUGAUUGUUGGCAAUAUAAUCUUGAGAGGCUGGUGGGACUUGGGGAAGGAGCAGGGACAGACAUCUGUU	0.659
AGCUUGUACAUACUUUUUUAUGGAGCAUUACUUACGAUUUUUUAAGUAAAAUGUUUUGAAACCAAAACUCACUUGGAUAUUCAUUUAUUGAAGCACACGGGCAACCUUUC	0.922
AAAUCUAAUAUAUGAAGUAGUAAUGAAAAUGAAGUAGUAAUUUAACCAGAGUUCAUUUAUCCUUGAAUAAACCUUUUUAUUUUCACCUCAGAAAAGUGAGUGUACUGGCA	0.381
AUUUUAAAAAGACGUACAUAGAAACUUAGGCACUUUGCUAUUUCUUUUCUAAACUAUCAAAAACUCUAGCAGUUUGAAAAGCCUAAUAUUUAUUUGUAUGUCAGUAUUUU	0.646
AUUAGAAUAGGAUAGCAUCUGAUGCCUGAGAACCCUCUCCUAGCACUGUCAAAUGCUGGUAUUGAAUGGGGACUGAGGAUGGGUCUCAGAGAGCAACCUCCUCCCUCGUA	1.26
CCAUUAAUAGUUUCUGGUUGACCAUUUGAACAUGUAUUAACUUAGGAAGACUAAUUGCCAAUAACGUCUGCAUUUUCAUCUUGCAUGGAUUAACAGCCAUUUAUAUGGAC	0.463

Further values, each from its own experiment
Substance	target	assay	test system	setting	how to read	measurement	value
PhoQ, residues 284 288 289 292 302 303 QWQEDG	PhoP, residues 12 14 15 18 19 GQALL (Escherichia coli, UniProt P23836)	Sort-seq, measured: YFP reporter	E. coli	PhoQ-PhoP variant library, with: 10 µM Mg2+	relative to: high Mg2+ state, higher = stronger signaling	fold induction	17.3

A few entries again (study 2):
Strand	E-score
ATTCCCTG	0.0226
CTGAATGC	0.0575
